Measured values from different studies.
Each line is one published result; not all experiments were run side by side. “And” joins repeats or separate records; there may be more than shown. ± marks the error that the study gave.
Organism: Plasmodium falciparum

For O=C1C(O)=C([C@H]2CC[C@H](c3ccc(Cl)cc3)CC2)C(=O)c2ccccc21, the resistance index was 3350 (C2B; 72 h; baseline: C2B over 3D7).
The EC50 of Cc1cc(Nc2ccc(C(C)(C)C)cc2)c2[nH]ncc2n1 is reported as 2010 ± 180 nM (parasite growth, SYBR Green; 3D7 DHODH E182D; 72 h).
The selectivity index of Cl.Oc1cccc2c1[nH]c1c(C3=CC4(O)CC/C=C\CCCCN5CCC3C3(CC6/C=C\CCCCN6C43)C5)nccc12 (single isomer, unassigned; (+)) is reported as 25 (D6, chloroquine-sensitive; baseline: Vero IC50 over D6 IC50).
For COc1ccc(-c2ccc(CNC(=O)c3cc(C(=O)NC(C)C)ccc3Cl)cc2)cn1, “sorbitol lysis protection” read “decreased” (PSAC-resistant lines; concentration not given; baseline: parental 3D7A).
Under “EC50 fold shift”, Cc1ccc(N(c2ccc(NC(=O)CN(C)c3ccccc3N3CCCC3=O)cc2)C(C)C)cc1 is recorded as roughly 650 fold (SYBR Green; Dd2 CSC1 L800P mutant; 72 h; baseline: mutant over parental Dd2).
With C[C@]12C=CC(=O)C=C1CC[C@@H]1C2=CC[C@]2(C)[C@@H](C(=O)CN3CCN(c4cc(N5CCCC5)nc(N5CCCC5)n4)CC3)CC[C@@H]12 the IC50 was 794 nM (W2).
COC1=CC(c2ccc[nH]2)=N/C1=C\c1[nH]c(Cc2ccc(OC(F)(F)F)cc2)cc1Cc1ccc(OC(F)(F)F)cc1 has an IC50 of 27 nM (parasite growth; Dd2; 72 h, synchronized rings).
For CC(C)C[C@H](NC(=O)[C@H](Cc1c[nH]c2ccccc12)NC(=O)CN1CCOCC1)C(=O)N[C@H](/C=C/S(C)(=O)=O)Cc1c[nH]c2ccccc12, the EC50 was 6.7 ± 1.4 nM (Dd2 β5 S27F resistant).
The EC50 of CCn1c(-c2ccccc2)cc2nnc3ccccc3c21 is reported as 293 ± 46 nM (parasite growth, SYBR Green; 3D7 wild type; 72 h).
With Cc1cc(Nc2ccc(S(F)(F)(F)(F)F)cc2)n2nc(C(C)(F)F)nc2n1 the EC50 was 8.4 ± 3.7 nM (Dd2 β5 S28L resistant).
The IC50 of NC(=Nc1ccccc1)NC(=O)c1nc(Cl)c(N)nc1N is reported as 3160 nM (3D7).
The EC50 ratio of COc1ccccc1Cn1ccnc1SCC(=O)Nc1cccc(C(F)(F)F)c1 is reported as 8.8 (parasite growth, SYBR Green; 72 h; baseline: 3D7-E182D over 3D7).
Ic1ccc(N2CCN(Cc3c[nH]c4ncccc34)CC2)cc1 gave a merozoite invasion of 96% (FVO, purified merozoites, erythrocytes; 25 µM).
CCCC1O[C@@H]2C[C@H]3[C@@H]4CCC5=CC(=O)C=C[C@]5(C)[C@H]4[C@@H](O)C[C@]3(C)[C@]2(C(=O)CO)O1 (stereo partly drawn) has an IC50 of 2510 nM (W2).
For Oc1cccc(C(Nc2nccs2)c2ccc3cccnc3c2O)c1 (stereo not drawn), the IC50 was 1490 nM (parasite growth, inhibitor, SYBR Green I; Cam3.1 R539T (MRA-1240)).
O=C(O)C1=CC(=C(c2ccc(O)c(C(=O)O)c2)c2ccc(O)c(C(=O)O)c2)C=CC1=O has an IC50 of 5010 nM (HB3).
O=C(NCCN1CCCC1)c1cc(-c2ccc(CN3CCOCC3)cc2)nc2ccc(F)cc12: “parasite clearance break point” 34.3 h and 37.1 h and 28.6 h and 31.9 h and 46 h and 33.5 h (18S rRNA qPCR; human; 150 mg).
With C[C@H]1[C@@H](O)O[C@@H]2O[C@@]3(C)CC[C@H]4[C@H](C)CC[C@@H]1[C@@]24OO3 the parasite survival was 12.3% (ring-stage survival; 5248; 700 nM, 6 h).
OC(c1cc(C(F)(F)F)nc2c(C(F)(F)F)cccc12)C1CCCCN1 (stereo not drawn) gave an EC50 of 16.3 ± 6.4 nM (parasite growth).
CN(C)CCCN1c2ccccc2C(C)(C)c2ccccc21 has a merozoite invasion of 56% (FVO, purified merozoites, erythrocytes; 25 µM).
With NCCN(C(=O)c1ccc(Cl)cc1Cl)c1ccc(OCc2ccc(Cl)cc2)cc1 the IC50 was 3660 nM (parasite growth, inhibitor, SYBR Green I; Cam3.1 R539T (MRA-1240)).
The EC50 of O=C(Nc1cccc(Cl)c1Cl)Nc1ccnc2ccccc12 is reported as 1290 ± 340 nM (parasite growth, SYBR Green; 3D7 wild type; 72 h).
With CCN(CC)CCCC(C)Nc1ccnc2cc(Cl)ccc12 (stereo not drawn) the resistance index was 13 (baseline: IC50 Dd2 over IC50 3D7).
For Cn1nc2c(=O)n(C3CC3)cnc2c1[C@](O)(c1cnc(C(F)(F)F)c(Cl)c1)C(F)(F)F, “day parasites below quantitation limit” read no more than 9 days (Pf3D7^0087/N9, mouse; 30 mg/kg for 6 days).
For CCN(CC)CCCC(C)Nc1ccnc2cc(Cl)ccc12 (stereo not drawn), the resistance index was 6.5 (growth, [3H]-hypoxanthine uptake; Dd2; 96 h; baseline: Dd2 IC50 over 3D7 IC50).
CN1CCC(=C2c3ccccc3CC(=O)c3sccc32)CC1 has an IC50 of 10000 nM (7G8).
For c1cc([C@H]2CC[C@]3(CC2)OO[C@]2(O3)C3CC4CC(C3)CC2C4)ccc1OCCN1CCOCC1, “lag phase duration” read 4 h (human patients, malaria; oral, 400 mg).
CN(Cc1ccco1)c1ncnc2ccc(-c3ccoc3)cc12 gave a merozoite invasion of 95% (FVO, purified merozoites, erythrocytes; 25 µM).
For Cc1nnc(-c2ccc3ccn(CC(=O)Nc4ccccc4Cl)c3c2)o1, “EC50 fold shift” read 5 fold (Dd2 PfATP4 I398F P990R D1247Y; 72 h; baseline: mutant over parental).
Cl.O[C@]12C=C(c3nccc4c3[nH]c3ccccc34)[C@@H]3CCN(CCCC/C=C\CC1)C[C@@]31C[C@@H]3/C=C\CCCCN3[C@H]12 has a selectivity index of 70 (D6, chloroquine-sensitive; baseline: Vero IC50 over D6 IC50).
The resistance index of CC1(C)N=C(N)N=C(N)N1c1ccc(Cl)cc1 is reported as 156 (growth, [3H]-hypoxanthine uptake; FCR3; 48 h; baseline: FCR3 IC50 over 3D7 IC50).
CCOCC(=O)N1CCC[C@H](C(=O)NCc2nc(-c3ccc(C#N)cc3)cs2)C1 gave an EC50 of 26000 ± 11000 nM (Dd2 β5 S27F CRISPR-edited).
CN1CCC(NCc2cccc(-c3ccc(S(=O)(=O)NCc4ccccc4)cc3)c2)CC1 has an IC50 of 253 nM (parasite growth, inhibitor, SYBR Green I; Cam3.1 R539T (MRA-1240)).
O=C(c1ccc(Cl)cc1)N1CCCC(C(=O)N(Cc2nnc(-c3ccccc3Cl)o2)C2CC2)C1 (stereo not drawn) gave an EC50 of 119 ± 27 nM (parasite growth, SYBR Green; 3D7 wild type; 72 h).
The merozoite invasion of Oc1ccc2c3c1O[C@H]1c4[nH]c5c(c4C[C@@]4(O)[C@@H](C2)N(CC2CC2)CC[C@]314)C[C@@]1(O)[C@H]2Cc3ccc(O)c4c3[C@@]1(CCN2CC1CC1)[C@H]5O4 is reported as 100% (FVO, purified merozoites, erythrocytes; 50 µM).
C[C@@H]1CC[C@H]2[C@@H](C)C(=O)O[C@@H]3O[C@@]4(C)CC[C@@H]1[C@]32OO4: “new ring formation” 3 to 5% (3D7; 3 x IC50, treatment from late stage).
With Cc1nc(-c2ccc(OCC(C)C)c(C#N)c2)sc1C(=O)O the merozoite invasion was 100% (FVO, purified merozoites, erythrocytes; 50 µM).
The IC50 of O=C(Cc1ccc(Cl)c(Cl)c1)N1CCCCC1CN1CCCC1 (stereo not drawn) is reported as 10000 nM (Dd2).
For Cn1cc(-c2ccc3ccn(CC(=O)Nc4ccccc4Cl)c3c2)cn1, “EC50 fold shift” read 3 fold (Dd2 PfATP4 G358S; 72 h; baseline: mutant over parental).
For C=CCc1ccccc1OCC(O)CNC1(C)CCC(C(C)(C)NC(=O)CBr)CC1 (stereo not drawn), the IC50 was 6310 nM (D10).
CC(=O)c1c(Cc2ccccc2Cl)c[nH]c1C gave an EC50 of 85.8 ± 54 nM (parasite growth).
CC(C)[C@@H](CC(=O)N[C@@H]1CCCC[C@H]1C(=O)N[C@H](CC(=O)N[C@@H](CCC(=O)O)CC(=O)O)Cc1ccccc1)NC(=O)C[C@H](CO)NC(=O)[C@@H]1CNCC[C@H]1N — result for growth inhibition: “inactive” (SYBR Green; FVO; concentration not given, 36 h).
The EC50 ratio of Cc1cccc(C(=O)N2CCN(Cc3cccc(NC(=O)c4ccco4)c3)CC2)c1.O=C(O)C(F)(F)F is reported as 4 (parasite growth, SYBR Green; 72 h; baseline: 3D7-E182D over 3D7).
For C=CCc1ccccc1OCC(O)CNC(C)C (stereo not drawn), the IC50 was 12600 nM (HB3).
CCc1nnc(-c2ccc3ccn(CC(=O)Nc4cc(OC)c(OC)c(OC)c4)c3c2)o1 gave a barcode proportion of 97% (PfATP4 G358S line; 3 × EC50, day 14, barcoded pool).

For quick reference, copied from above:
With Cc1cc(Nc2ccc(S(F)(F)(F)(F)F)cc2)n2nc(C(C)(F)F)nc2n1 the EC50 was 8.4 ± 3.7 nM (Dd2 β5 S28L resistant).
For Oc1cccc(C(Nc2nccs2)c2ccc3cccnc3c2O)c1 (stereo not drawn), the IC50 was 1490 nM (parasite growth, inhibitor, SYBR Green I; Cam3.1 R539T (MRA-1240)).
CCc1nnc(-c2ccc3ccn(CC(=O)Nc4cc(OC)c(OC)c(OC)c4)c3c2)o1 gave a barcode proportion of 97% (PfATP4 G358S line; 3 × EC50, day 14, barcoded pool).
O=C(O)C1=CC(=C(c2ccc(O)c(C(=O)O)c2)c2ccc(O)c(C(=O)O)c2)C=CC1=O has an IC50 of 5010 nM (HB3).
With Cc1nc(-c2ccc(OCC(C)C)c(C#N)c2)sc1C(=O)O the merozoite invasion was 100% (FVO, purified merozoites, erythrocytes; 50 µM).
For c1cc([C@H]2CC[C@]3(CC2)OO[C@]2(O3)C3CC4CC(C3)CC2C4)ccc1OCCN1CCOCC1, “lag phase duration” read 4 h (human patients, malaria; oral, 400 mg).
The EC50 of Cc1cc(Nc2ccc(C(C)(C)C)cc2)c2[nH]ncc2n1 is reported as 2010 ± 180 nM (parasite growth, SYBR Green; 3D7 DHODH E182D; 72 h).
